Measured values pooled from the literature.
A part holds a random share of what one study measured.

Set 1
Target: RNA binding protein fox-1 homolog 2, RRM domain, GST-SBP tag (RBFOX2, Homo sapiens, UniProt O43251-10, residues 100-194)
Method: RNA Bind-n-Seq
Molecule type: RNA
Medium: in vitro
Concentration: 365 nM
Setting: natural RNA segment, single round, ends assumed
Baseline: no-protein control
Direction: higher = stronger binding
`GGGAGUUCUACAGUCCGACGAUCAGGCUCUCUGGAGCAGGGCCUGUAGUGUUAACAAGUUCUCUGGGUGGUUCUAUUCUGAGCACCCCUGUUGCCUCUGACGACCCCCCCCCCACCAAAGGGAAGCAGAGAAGUGGAAUUCUCGGGUGCCAA`: “RBNS enrichment (R)” 0.544.
`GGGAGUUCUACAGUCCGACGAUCGUAUCUUUACUUGAAAGUUGGGAGUCCUUGUUUAAUUUAGGUCUGUCUUCUUGUGUGACUGUUUCUGUAUGAAGUAUAAAAAUUUGUGUGCCUUGAGCAAGUCUCAUUUUUGGAAUUCUCGGGUGCCAA` — result for “RBNS enrichment (R)”: 0.929.
Under “RBNS enrichment (R)”, `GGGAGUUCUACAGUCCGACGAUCGGGUGGGAGUAGGGAGCUAGUUUGUUGAUAAAUAGUUCCCAUUUCCCCAUGGAGAAUUUGACAUACCCUGGACUCCUGUGUGCCUCCUGCCAUCCCUGCACACAGCCUGGUGGAAUUCUCGGGUGCCAA` is recorded as 0.724.
`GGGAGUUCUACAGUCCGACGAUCAGGAAAUGGCCACAUGUGUGGAUGGUUUAAUUAGAUUCUGUGGAGUCUCACAGUGGGAUUGUGGUUGUCUGAGGACACUUUGGGGGGUCGCUGUCCAAGAAGUGGCUCCCUGGAAUUCUCGGGUGCCAA` — result for “RBNS enrichment (R)”: 0.809.
Under “RBNS enrichment (R)”, `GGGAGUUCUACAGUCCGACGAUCGGUCGCCGCCGCCGCCGCCGCCGUCAUCCUCGCCUCUCGCUUCCCUCUGGGAGCUGCGCGCGCUUCACUCACCUUCCGCUUCACUCGCCUUCCACGCUUGCUCCAGAGACUGGAAUUCUCGGGUGCCAA` is recorded as 0.481.

Set 2
Target: Transcription factor SOX-2, HMG box (Sox2, Mus musculus, UniProt P48432, residues 41-119)
Chain of UniProt P48432 (41-119, looked up): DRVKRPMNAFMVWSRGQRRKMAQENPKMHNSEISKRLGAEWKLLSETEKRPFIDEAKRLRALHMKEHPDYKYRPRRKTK
Method: Spec-seq
Molecule type: double-stranded DNA, one strand shown
Medium: in vitro
Concentration: not given
Setting: whole probe, mean of replicates
Baseline: not given
Direction: lower = stronger binding
All sequences stand within: GAGTCGTCTCGTCAGCAC … CCGTAGAGCACTCAGGTC
`TGTTGTT` — result for “relative binding energy”: -1.71 ln ratio.
Under “relative binding energy”, `CATGTGT` is recorded as 0.205 ln ratio.
`AGCTGTT` — result for “relative binding energy”: 0.0947 ln ratio.
For `GCGGGTT`, “relative binding energy” read 1.66 ln ratio.
`CATTGGC` — result for “relative binding energy”: -0.268 ln ratio.
For `CACCGTT`, “relative binding energy” read 0.784 ln ratio.

Set 3
Target: Hepatocyte nuclear factor 3-alpha (Foxa1, Mus musculus, UniProt P35582, residues 1-468, full length assumed)
Chain of UniProt P35582 (whole entry, looked up): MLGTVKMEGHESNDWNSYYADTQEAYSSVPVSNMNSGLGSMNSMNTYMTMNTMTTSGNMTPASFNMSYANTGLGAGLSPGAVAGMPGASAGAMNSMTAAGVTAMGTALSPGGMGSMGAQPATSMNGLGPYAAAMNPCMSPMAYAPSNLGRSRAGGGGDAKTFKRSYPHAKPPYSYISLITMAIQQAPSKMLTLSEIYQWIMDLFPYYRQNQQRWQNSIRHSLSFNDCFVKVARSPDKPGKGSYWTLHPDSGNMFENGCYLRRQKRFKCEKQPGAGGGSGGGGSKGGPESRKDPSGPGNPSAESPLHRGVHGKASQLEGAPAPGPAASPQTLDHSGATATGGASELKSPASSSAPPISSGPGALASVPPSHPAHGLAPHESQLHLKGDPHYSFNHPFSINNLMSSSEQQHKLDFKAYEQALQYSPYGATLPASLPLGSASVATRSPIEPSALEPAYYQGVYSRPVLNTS
Method: EMSA with sequencing
Molecule type: double-stranded DNA, one strand shown
Medium: in vitro
Concentration: 10 and 20 nM
Setting: whole designed probe, mean of two concentrations, ends assumed
Baseline: negative control set to 0
Direction: higher = stronger binding
`GTGAGCGGTGCCCATTGATGGGGAACCCTGTGGGATAACATCAAGTGCTCTAACGTAAGTATCACTGCAGTCCTGGGAAGGGGCAGGGCGGGACTATTTGAAAACATGATGACTAAATGTAAATACTCAAGGTATGATGACACTGTATGCAGAGTACTCAACACAAAGGGTTCAGTGTTAAATGTAGACTTACACGGGTATATGGTACCCACAACTCAATTTCACTGGGATCGTGGGGAC`: “normalised bound fraction” 0.266 ratio.
Under “normalised bound fraction”, `GTGAGCGGTGCCCATTGATGGGGAACTCTCCCCTGCAGGAGTTTGGACTAATCAGGTCACTACACCCTGACACAGCAGTCTCCAGTCTCTACCACTCATTGTTTGCAACATGAGCTAATGTCAACAGACCACAGAGAAGTTAGCAACAGGGAAGGGAAAACACTTTAATCTCAAGGTCATCCCCAGGGTTCAGCAGGACATATATCCTATATCGAATCATTTCACTGGGATCGTGGGGAC` is recorded as 0.369 ratio.
For `GTGAGCGGTGCCCATTGATGGGGAACCAGATTGCTCAGAACCCTTCTCCCCACTTCCCCTCACCCTTTGGACCCTGGAACACACCAGGCCCATTCCTGAGGGCTTGAGAGCTGGGATCTCAGATTACTCAGATAGGTTGTGCTGTCCTGGCCCTAAGGGCCCTAAGGGCTCTGCCTTCTGGGAGGTCCCTGAGCTGGTGCCAGGATGGGCAGTGGGCTGTTTCACTGGGATCGTGGGGAC`, “normalised bound fraction” read -0.0799 ratio.
Under “normalised bound fraction”, `GTGAGCGGTGCCCATTGATGGGGAACGTGTGCTAGCCTGTGAGTTTTTCTCTCCAACTAGCCTGGGTACTCAGGAAAGTGAGATCAACTTCTGGGTGGCCTTGGGTGTAGCTGACCTGTGCAAATAGGGGAGACAGTTGACATACAGATGAAAGGGGAGATGGGAAGCCATACAGAGGAAGGAGAAGATCAGGAACCAGAGATAAGATAATTCTGTAAATTTCACTGGGATCGTGGGGAC` is recorded as 0.231 ratio.

Single results of other studies
`PhoQ, residues 284 288 289 292 302 303 AANNSF` has a fold induction of 7.24 (PhoP, residues 12 14 15 18 19 NMSFL (Escherichia coli, UniProt P23836); Sort-seq, item: YFP reporter; E. coli; PhoQ-PhoP variant library, added: 10 µM Mg2+; baseline: high Mg2+ state, higher = stronger signaling).

A few entries again (set 2):
For `CACCGTT`, “relative binding energy” read 0.784 ln ratio.
